Assay results from different studies.
Compare with care: the assays were run in different laboratories. “And” joins repeats or separate records; there may be more than shown. ± marks the error that the study gave.
Phosphoglycerate mutase 1: Phosphoglycerate mutase 1 (Homo sapiens, UniProt P18669)
CASP4: Caspase-4 (CASP4, Homo sapiens, UniProt P49662)

N[C@H]1CC[C@H](Nc2nccc(-c3cccnc3Oc3ccc(NC(=O)NC4CC4)c4ccccc34)n2)CC1 — log2 LFQ intensity (Phosphoglycerate mutase 1; kinobead competition pulldown, measured: PGAM1; HEK293/HCT116 lysate mixture; 10 µM, 1 h, 4 °C; lower = stronger competition): 22.7 and 22.6 and 23.1 and 23.5
C=CC(=O)N1CCCC(n2c(=O)c3ncccc3n(Cc3ccc(Oc4ccccc4)cc3)c2=O)C1 (stereo not shown) — melting temperature (NSUN2 (Homo sapiens, UniProt Q08J23); thermal proteome profiling; cell proteome; treated): 57 °C and 50.6 °C
CC(=O)N[C@@H](CC(C)C)C(=O)N[C@@H](CCC(=O)O)C(=O)N[C@H](C(=O)N[C@@H](CC(=O)O)C(=O)COC(=O)c1c(C)cccc1C)C(C)C — kinact/KI (Caspase-9 (CASP9, Homo sapiens, UniProt P55211); enzyme activity, inhibitor): 69200 M⁻¹ s⁻¹
CC1=NN(c2ccccc2)C(=O)/C1=C\c1ccc(-c2cc(C(=O)O)ccc2Cl)o1 — activity class (Kelch-like ECH-associated protein 1, with NRF2 (Mus musculus, UniProt Q9Z2X8); binding; concentration not given, biochemical): active
CC(=O)N[C@H](C(=O)N[C@@H](CCC(N)=O)C(=O)N[C@@H](CO)C(=O)N[C@@H](CC(=O)O)C(=O)COC(=O)c1c(C)cccc1C)C(C)(C)C — kinact/KI (CASP4; enzyme activity, inhibitor): 500 M⁻¹ s⁻¹
CC1=CC(=O)CN(S(=O)(=O)c2ccc(C)cc2)C1 — inhibition (USP5 (Homo sapiens, UniProt P45974); enzyme activity, inhibitor; 17 µM): 7%
CC[C@H](C)[C@H](NC(=O)[C@H](Cc1ccccc1)NC(=O)[C@H](CCC(=O)O)NC(=O)[C@H](CCCCN)NC(=O)[C@H](C)NC(=O)[C@H](C)NC(=O)[C@H](CCC(N)=O)NC(=O)CNC(=O)[C@H](CCC(=O)O)NC(=O)[C@H](CC(C)C)NC(=O)[C@H](Cc1ccc(O)cc1)NC(=O)[C@H]1CCC[C@@H]1NC(=O)[C@H](CO)NC(=O)C(C)(C)NC(=O)[C@H](CC(=O)O)NC(=O)[C@H](CO)NC(=O)[C@@H](NC(=O)[C@H](Cc1ccccc1)NC(=O)[C@@H](NC(=O)CNC(=O)[C@H](CCC(=O)O)NC(=O)C(C)(C)NC(=O)[C@@H](N)Cc1c[nH]cn1)[C@@H](C)O)[C@@H](C)O)C(=O)N[C@@H](C)C(=O)N[C@@H](Cc1c[nH]c2ccccc12)C(=O)N[C@@H](CC(C)C)C(=O)N[C@H](C(=O)N[C@@H](CCCCN)C(=O)NCC(=O)N[C@@H](CCCNC(=N)N)C(N)=O)C(C)C — efficacy (GLP1R (Homo sapiens, UniProt P43220); β-arrestin-1 recruitment, agonist, BRET; baseline: GLP-1): 29 ± 4%
CC(=O)N[C@@H](Cc1ccccc1)C(=O)N[C@@H](CC(=O)O)C(=O)N[C@@H](CCC(=O)O)C(=O)N1CCC[C@H]1C(=O)N[C@@H](CC(=O)O)C(=O)COC(=O)c1c(C)cccc1C — kinact/KI (CASP4; enzyme activity, inhibitor): 46000 M⁻¹ s⁻¹
CCCCCC(O)/C=C/C=O (stereo not shown) — isoTOP-ABPP competition ratio (Glyoxylate reductase/hydroxypyruvate reductase (Homo sapiens, UniProt Q9UBQ7); competitive isoTOP-ABPP, measured: GRHPR cysteine peptide; Ramos soluble proteome; 100 µM, added: iodoacetamide probe; baseline: DMSO over compound-treated, higher = stronger cysteine blockade): 2
CC(=O)N[C@@H](CC(=O)O)C(=O)N[C@@H](CCCC(=O)O)C(=O)N1[C@H](C(=O)N[C@@H](CC(=O)O)C(=O)COC(=O)c2c(C)cccc2C)C[C@@H]2CCCC[C@@H]21 — kinact/KI (CASP4; enzyme activity, inhibitor): 23500 M⁻¹ s⁻¹
O=C1N/C(=N\c2ccc(F)cc2C(=O)O)S/C1=C\c1ccc(C(F)(F)F)cc1 — reaction rate (DHODH (Homo sapiens, UniProt Q02127); enzyme activity, inhibitor, DCIP reduction; 0.5 µM; higher = more activity): -24.2 a.u.
N#CN1CC[C@H](C(=O)Nc2nc3c(s2)CN(C(=O)Cn2cc(COCCOCCOCCOCCNC(=O)CCCC[C@@H]4SC[C@@H]5NC(=O)N[C@@H]54)nn2)CC3)C1 — iBAQ abundance (Isochorismatase domain-containing protein 2 (ISOC2, Homo sapiens, UniProt Q96AB3); probe binding, affinity probe, neutravidin pull-down LC-MS/MS; HEK293T, cell lysate; 5 µM, 1 h, single replicate, unit not given; higher = more pulled down): 3.03e+08 and 3.15e+08 and 5.31e+08
CC(=O)N[C@@H](CCCNC(=N)N)C(=O)N[C@H](C(=O)N[C@@H](CCCCN)C(=O)N[C@@H](CO)C(=O)N[C@@H](CCCNC(=N)N)C(=O)N[C@H](C(=O)N[C@@H](Cc1c[nH]c2ccccc12)C(=O)N[C@@H](C)C(=O)N[C@@H](C)C(N)=O)[C@@H](C)OP(=O)(O)O)[C@@H](C)O — kon (14-3-3 protein epsilon (Homo sapiens, UniProt P62258); binding, SPR): 1.01e+06 M⁻¹ s⁻¹
O=C(CC1CCOCC1)Nc1ccc([C@H]2[C@@H](F)[C@@H](F)C[C@@H](F)[C@H]2F)cc1 — hepatic clearance (liver microsome stability; mouse liver microsomes; 1 µM): 34 mL/min/kg
CSCC[C@H](NC(=O)[C@H](CC(=O)O)NC(C)=O)C(=O)N[C@@H](Cc1ccc(O)cc1)C(=O)N[C@@H](Cc1ccc(O)cc1)C(=O)N[C@@H](CCCNC(=N)N)C(=O)N[C@@H](Cc1ccc(O)cc1)C(=O)N[C@@H](CC(N)=O)C(=O)NCC(=O)N[C@@H](CCCCN)C(=O)N[C@H](C(=O)N[C@@H](Cc1c[nH]c2ccccc12)C(=O)N[C@@H](Cc1c[nH]c2ccccc12)C(=O)N[C@@H](CCCNC(=N)N)C(=O)O)C(C)C — α-helix content (Insulin (INS, Bos taurus, UniProt P01317); circular dichroism; INS-peptide complex; 800 min, final heating stage, added: INS 350 µM): 12%
CNC(=O)c1ccc([C@H]2[C@@H](F)[C@@H](F)C[C@@H](F)[C@H]2F)cc1 — hepatic clearance (liver microsome stability; human liver microsomes; 1 µM, without NADPH): 3.9 mL/min/kg
CC(C)Oc1cc(Cl)ccc1CNc1cc(-c2ccccc2)nc2ncnn12 — cAMP luminescence (GPR3 (Homo sapiens, UniProt P46089, M156A); cAMP level, cAMP GloSensor; 1 µM; higher = more cAMP): 25000 a.u. and 19300 a.u. and 21400 a.u. and 26200 a.u.
CC[C@H](C)[C@@H]1NC(=O)[C@H](Cc2ccccc2)NC(=O)[C@H](CCC(=O)O)NC(=O)[C@H](CCCNC(=N)N)NC(=O)CNC(=O)[C@@H](NC(=O)[C@H](CC(C)C)NC(=O)[C@H](CCCNC(=N)N)NC(=O)[C@@H](NC(=O)CNC(=O)[C@H](Cc2ccc(O)cc2)NC(=O)[C@@H]2CCCN2C(=O)[C@H](C)NC(=O)[C@H](C)NC(=O)[C@@H](N)CCCNC(=N)N)C(C)C)CSSC[C@@H]2NC(=O)[C@@H](NC(=O)[C@H](CO)NC(=O)[C@H](CO)NC(=O)[C@H](CO)NC(=O)[C@H](CC(C)C)NC(=O)CNC(=O)[C@H](C)NC(=O)[C@H](CC(C)C)NC(=O)[C@@H](NC(=O)[C@@H](N)CC(=O)O)C(C)C)CSSC[C@H](NC(=O)CNC(=O)[C@H](Cc3c[nH]c4ccccc34)NC(=O)[C@H](CCCCN)NC2=O)C(=O)N[C@@H](CO)C(=O)N[C@@H](CCCCN)C(=O)N[C@@H](CO)C(=O)N[C@@H](CCC(=O)O)C(=O)N[C@@H]([C@@H](C)CC)C(=O)N[C@@H](CO)C(=O)N[C@@H](CO)C(=O)N[C@@H](CC(C)C)C(=O)N[C@H](C(=O)O)CSSC[C@@H](C(=O)NCC(=O)NCC(=O)N[C@@H](CO)C(=O)N[C@@H](CCCNC(=N)N)C(=O)N[C@@H](Cc2c[nH]c3ccccc23)C(=O)O)NC(=O)[C@H]([C@@H](C)O)NC(=O)[C@H](Cc2ccccc2)NC(=O)[C@H]([C@@H](C)CC)NC(=O)[C@H](C(C)C)NC(=O)[C@H](C)NC(=O)[C@H](CCCNC(=N)N)NC1=O — change in pEC50 (RXFP4 (Homo sapiens, UniProt Q8TDU9, Q205A); agonist; Q205A mutant, unit not given; baseline: wild type): -0.985 and -2.11 and -0.648 and -1.26
Nc1nc(NCc2ccc(Cl)cc2)nn1S(=O)(=O)c1cccc2cccnc12 — probe labeling increase (Lysophospholipase-like protein 1 (Mus musculus, UniProt Q3UFF7); enzyme activity, activator, gel-based ABPP; purified protein; concentration not given, added: FP-rhodamine; baseline: DMSO): 1.1 fold
CN(Cc1cc(C2CC2)on1)C(=O)c1cccc(-c2ccc3c(c2)CCO3)c1 — reaction rate (Acetyl-CoA synthetase (Cryptococcus neoformans, UniProt J9VFT1); enzyme activity, inhibitor, coupled pyrophosphate; 12.5 µM; higher is more activity): 0.00131 a.u.
CCCCCCCCCCCCC/C=C/C=O — isoTOP-ABPP competition ratio (MIF4G domain-containing protein (MIF4GD, Homo sapiens, UniProt A9UHW6); competitive isoTOP-ABPP, measured: MIF4GD cysteine peptide; proteome, soluble, MDA-MB-231; 100 µM, added: iodoacetamide probe; baseline: DMSO over compound-treated, higher = stronger cysteine blockade): 1.1
[3H]C([3H])([3H])OC1(C2=NCCN2)COc2ccccc2O1 (stereo not shown) — Bmax (Alpha-2C adrenergic receptor (Mus musculus, UniProt Q01337, N19Q); radioligand binding; HEK293 membranes; α2c(N19Q)-AR mutant): 0.21 ± 0.06 pmol/mg protein
CC(C=CC=C(C)C=CC1=C(C)CCCC1(C)C)=CC=O — Pearson correlation coefficient (Rhodopsin (RHO, Homo sapiens, UniProt P08100, E181K); ER retention, immunostaining co-localization, measured: opsin with calnexin; COS-7 transfected E181K; 5.00 µM): 0.66
O=P(O)(O)OC[C@H]1O[C@H](OP(=O)(O)O)[C@H](O)[C@@H](O)[C@@H]1O — enzyme activity (Phosphoglycerate mutase 1; activator, sugar phosphate screen; concentration not given; baseline: untreated control): 66.1% and 59.9% and 69.2%
CCCCCCCCCCCCCCCC(=O)OCC(CSC[C@H](N)C(=O)N[C@@H](CO)C(=O)N[C@@H](CCCCN)C(=O)N[C@@H](CCCCN)C(=O)N[C@@H](CCCCN)C(=O)N[C@@H](CCCCN)C(=O)NCCCCCC(=O)N[C@@H](CCCCN)C(=O)N[C@@H](CC(C)C)C(=O)N[C@H](C(=O)N[C@@H](Cc1ccccc1)C(=O)N[C@@H](Cc1ccccc1)C(=O)N[C@@H](Cc1ccc2ccccc2c1)C(=O)O)C(C)C)OC(=O)CCCCCCCCCCCCCCC (stereo partly shown) — fibril diameter (Amyloid-beta precursor protein, fibrillar amyloid-beta (APP, Homo sapiens, UniProt P05067); TEM; 2.0 eq, 8 h, fibril 7, added: APP 20 µM): 43.8 nm

Excerpt of the above:
CC(=O)N[C@@H](CC(C)C)C(=O)N[C@@H](CCC(=O)O)C(=O)N[C@H](C(=O)N[C@@H](CC(=O)O)C(=O)COC(=O)c1c(C)cccc1C)C(C)C — kinact/KI (Caspase-9 (CASP9, Homo sapiens, UniProt P55211); enzyme activity, inhibitor): 69200 M⁻¹ s⁻¹
CC1=NN(c2ccccc2)C(=O)/C1=C\c1ccc(-c2cc(C(=O)O)ccc2Cl)o1 — activity class (Kelch-like ECH-associated protein 1, with NRF2 (Mus musculus, UniProt Q9Z2X8); binding; concentration not given, biochemical): active
